Experimental data pooled from the literature.
Lines come from different studies, so protocols differ. ± gives the spread as reported.

`C=C(OP(=O)(O)O)C(=O)O` gave a Kd of 60 ± 4 µM (pfkA (Geobacillus stearothermophilus, UniProt P00512)).
`CSCC[C@H](NC(=O)[C@H](Cc1ccc(OP(=O)(O)O)cc1)NC(=O)CNC(=O)CNC(=O)[C@H](CC(=O)O)NC(=O)[C@H](CO)NC(=O)[C@H](CCC(=O)O)NC(=O)CNC(=O)[C@@H](NC(=O)[C@H](CC(C)C)NC(=O)[C@H](CO)NC(=O)c1ccc2c(c1)C(=O)OC21c2ccc(N(C)C)cc2Oc2cc(N(C)C)ccc21)[C@@H](C)O)C(=O)N[C@@H](CC(=O)O)C(=O)N[C@@H](CCSC)C(=O)N[C@@H](CO)C(=O)N[C@@H](CCCCN)C(=O)N[C@@H](CC(=O)O)C(=O)N[C@@H](CCC(=O)O)C(=O)N[C@@H](CC(=O)O)C(=O)O` gave a Kd of 1.26 µM (Tyrosine-protein kinase ZAP-70, SH2 domains (ZAP70, Homo sapiens, UniProt P43403); binding).
With `C[N+](C)(C)[C@@H](Cc1c[nH]c(=S)[nH]1)C(=O)[O-]` the Kd was > 100 µM (egtUBC (Streptococcus pneumoniae, UniProt A0A0H2ZQB9, K242S); binding).
For `CC[C@H](C)[C@H](NC(=O)[C@H](CC(=O)O)NC(=O)[C@H](C)NC(=O)[C@H](Cc1ccc(OP(=O)(O)O)cc1)NC(=O)[C@H](CCCCN)NC(=O)[C@@H](NC(=O)[C@H](CC(=O)O)NC(=O)CNC(=O)[C@H](CCCCN)NC(=O)[C@H](CCSC)NC(=O)[C@H](CC(=O)O)NC(=O)[C@H](CC(C)C)NC(=O)[C@H](CCSC)NC(=O)c1ccc2c(c1)C(=O)OC21c2ccc(N(C)C)cc2Oc2cc(N(C)C)ccc21)C(C)C)C(=O)N[C@@H](CCC(=O)O)C(=O)N[C@@H](CO)C(=O)N[C@@H](CO)C(=O)N[C@@H](CC(N)=O)C(=O)N[C@@H](CC(=O)O)C(=O)O`, the Kd was 0.285 µM (Tyrosine-protein kinase Fgr, SH2 domain (FGR, Homo sapiens, UniProt P09769); binding).
`CO[C@@H]1[C@@H](OC(N)=O)[C@@H](O)[C@H](Oc2ccc3c(O)c(NC(=O)c4ccc(O)c(CC=C(C)C)c4)c(=O)oc3c2C)OC1(C)C` gave a Kd of 227 µM (TetR-family regulator NalD (Pseudomonas aeruginosa, UniProt Q9HY46, F132A/N129A/V133A)).
`Cc1cc2nc3c(=O)[nH]c(=O)nc-3n(C[C@H](O)[C@H](O)[C@H](O)COP(=O)(O)O)c2cc1C` gave a Kd of 23 ± 4 µM (5,6-dimethylbenzimidazole synthase (bluB, Rhizobium meliloti, UniProt Q92PC8); binding; Sinorhizobium meliloti).
With `C[C@H]1CN(c2n[nH]c3nc(N[C@H]4CC[C@H](NS(=O)(=O)CCC(F)(F)F)CC4)ncc23)CCO1` the relative abundance was 1.21 (Myosin-9 (MYH9, Homo sapiens, UniProt P35579); inhibitor, Kinobeads competition profiling; 20 µM; baseline: vehicle).
The Kd of `O=C(CO)[C@@H](O)[C@H](O)[C@H](O)COP(=O)(O)O` is reported as 56 ± 2 µM (pfkA (Geobacillus stearothermophilus, UniProt P00512, H160A)).
`CCN(CC)CCCNC(=O)c1ccc(-c2nc(CN3CCc4ccccc43)c(C)o2)cc1` gave a maximum response of -3.06% (Vero-E6; CellTiter-Glo ATP; 72 h, second round 5-point; baseline: DMSO 0%, hyamine -100%, more negative, more toxic).
For `COc1cc(Nc2ncc(F)c(Nc3ccc4c(n3)NC(=O)C(C)(C)O4)n2)cc(OC)c1OC`, the IC50 was > 10 µM (Adrenomedullin receptor, AM2; CALCRL/RAMP3 (Homo sapiens, UniProt O60896+Q16602)).
With `CSCC[C@H](N)C(=O)N[C@@H](C)C(=O)N[C@@H](C)C(=O)N[C@H](C(=O)N[C@@H](C)C(=O)NCC(=O)N[C@@H](CC(C)C)C(=O)N[C@@H](Cc1ccc(O)cc1)C(=O)NCC(=O)N[C@@H](CC(C)C)C(=O)NCC(=O)N[C@@H](CCC(=O)O)C(=O)N[C@@H](CC(=O)O)C(=O)N[C@@H](CCCNC(=N)N)C(=O)N[C@@H](CCC(N)=O)C(=O)N[C@@H](Cc1c[nH]cn1)C(=O)N[C@@H](CCCNC(=N)N)C(=O)N[C@@H](CCCCN)C(=O)N[C@@H](CCCCN)C(=O)N[C@@H](CCC(N)=O)C(N)=O)C(C)C` the Kd was 3.2 µM (Sh, DEL6-46 (Drosophila melanogaster, UniProt P08510); ion current, blocker, inside-out patch clamp; Xenopus oocytes; range over 1 µM, pH 7.0, 22–24 °C, at 0 mV).
With `Cn1c2cccc(=O)c-2nc2ccccc21` the Kd was 7.03 µM (TetR-family regulator NalD (Pseudomonas aeruginosa, UniProt Q9HY46); surface plasmon resonance; 25 °C).
The cytotoxicity efficacy of `Clc1ccc2nc(N3CCC(NCCc4cccnc4)CC3)sc2c1` is reported as -18.1% (Vero-E6; CellTiter-Glo ATP; concentration not given, 72 h, retest 8-point duplicates; baseline: DMSO 0%, hyamine -100%, more negative, more toxic).

Excerpt of the above:
`C=C(OP(=O)(O)O)C(=O)O` gave a Kd of 60 ± 4 µM (pfkA (Geobacillus stearothermophilus, UniProt P00512)).
